Measurements from different studies.
Lines come from different studies, so protocols differ. ± marks the error that the study gave.
ALB: Albumin (ALB, Bos taurus, UniProt P02769)
DCPS: m7GpppX diphosphatase (DCPS, Homo sapiens, UniProt Q96C86)
FOLH1: Glutamate carboxypeptidase 2 (FOLH1, Homo sapiens, UniProt Q04609)
T1: dsDNA hairpin, hairpin; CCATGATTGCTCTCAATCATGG

`COc1ccc(CNc2nc3c(c(=O)[nH]2)[n+](C)cn3C2OC(COP(=O)(O)OP(=O)([O-])OP(=O)(O)OCC3OC(n4cnc5c(=O)[nH]c(N)nc54)C(O)C3O)C(O)C2O)cc1` (centres unmarked) gave a cap hydrolysis of 26.1% (NUDT16 (Homo sapiens, UniProt Q96DE0); decapping, substrate; capped RNA transcribed by SP6 polymerase; concentration not given, 30 min).
The ΔH of `Cc1cccc(Cn2ncc3c4cc(F)c(CN(C)C)cc4n(C)c3c2=O)n1` is reported as -7.89 ± 0.459 kcal/mol (Pyruvate kinase PKM (PKM, Homo sapiens, UniProt P14618); ITC; pH 7.5, 25 °C).
`CC(=O)N[C@@H](CC(=O)O)C(=O)N[C@H](C(=O)N[C@@H](CCCCN)C(=O)N[C@@H](CC(N)=O)C(=O)N[C@@H](CCN1C(=O)c2ccc(N(C)C)cc2C1=O)C(=O)N[C@@H](CCCCN)C(=O)N[C@@H](CCC(N)=O)C(=O)N[C@H](C(=O)N[C@@H](CO)C(=O)N[C@H](C(=O)O)C(C)C)[C@@H](C)O)[C@@H](C)O` — result for “relative fluorescence increase”: 48.8 (Disks large homolog 4, PDZ3 domain (Homo sapiens, UniProt P78352); PDZ domain binding, fluorescence emission intensity; PSD-95 PDZ3 domain; 4-DMAP-Dab at position -5; relative to: probe without PDZ domain).
`CCCCCCCCCCCCCC(=O)Nc1ccccc1SSc1ccccc1NC(=O)CCCCCCCCCCCCC` — result for “Gibbs free energy change”: -7.67 kcal/mol (ALB; binding, fluorescence quenching; 298 K).
Under “affinity enhancement over galactose”, `CC(=O)N[C@H]1[C@H](Oc2ccccc2-c2cccc(C(=O)O)c2)O[C@H](CO)[C@H](O)[C@@H]1O` is recorded as ~7800 fold (Adhesin FmlH, lectin domain (Escherichia coli, UniProt Q1RBS0); inhibitor, competitive bio-layer interferometry; UPEC UTI89; added: immobilized Ser-TF; relative to: compound over galactose).
Under “rate constant k4”, `Cc1cc(NC(=O)c2cccc(NC(=O)/C(C#N)=C/C(C)(C)C)c2)ccc1Nc1nccc(-c2cccnc2)n1` is recorded as 0.00035 s⁻¹ (MAPK8 (Homo sapiens, UniProt P45983); surface plasmon resonance, two-step model).
For `O=C(NCC1CO1)Oc1ccc([N+](=O)[O-])cc1` (racemic), “signal to noise ratio” read 4 (Epoxide hydrolase 1 (EPHX1, Homo sapiens, UniProt P07099); substrate, absorbance; 50 µM, pH 9.0, 37 °C, human enzyme).
The hydrolysis of `C[n+]1cn(C2OC(COP(=O)(O)OP(=O)([O-])C(Cl)(Cl)P(=O)(O)OP(=O)(O)OCC3OC(n4cnc5c(=O)[nH]c(N)nc54)C(O)C3O)C(O)C2O)c2nc(N)nc(O)c21` (centres unmarked) is reported as 0% (DCPS; substrate, HPLC; 0.04 mM, 60 min, 37 °C).
Under “histone acetyltransferase activity”, `COc1ccc(NCc2c(OCc3ccc(F)cc3)ccc3ccccc23)cc1Cl` is recorded as “increased” (KAT5 (Homo sapiens, UniProt Q92993); activator; 20 µM).
With `COc1cc(C(=O)NC2CCC(N3CCN(CC4CCC5(CCCC5)C4)CC3)CC2)c(F)cc1Nc1ncc2c(n1)N(C1CCCC1(F)F)CC(F)(F)C(=O)N2C` (centres unmarked) the inhibition was 0.73% (PLK2 (Homo sapiens, UniProt Q9NYY3); cell-free assay, TR-FRET; 10 µM).
`CCC(=O)N1CCN(c2ccc(N(C)C(=O)C(C)(C)c3cc(C(F)(F)F)cc(C(F)(F)F)c3)c(-c3ccccc3C)c2)CC1` — result for “inhibition rate constant”: 0.14 ± 0.02 min⁻¹ (TACR1 (Homo sapiens, UniProt P25103); antagonist, BRET; HEK293T; 10 µM, added: substance P, added 5 min before).
The residence time of `CCc1nc2cc3ccccc3cc2cc1C(=O)N1CCC[C@H]1C(=O)N[C@@H](C/C=C/C[C@H](NC(=O)[C@@H]1CCCN1C(=O)c1cc2cc3ccccc3cc2nc1CC)C(=O)N[C@@H](CCCCN)C(=O)NCCCN)C(=O)N[C@@H](CCCCN)C(=O)NCCCN` is reported as 888 s ((CUG)2 RNA; SPR).
The enrichment ratio of `C=C1C(=O)OC2C1CCC(C)=C1C(OC(=O)CCCCCCCCCCCNC(=O)CCCCC3SCC4NC(=O)NC43)CC(C)(O)C12` (centres unmarked) is reported as 5.1 fold (EXOC1 (Homo sapiens, UniProt Q9NV70); competitive pull-down LC-MS/MS; M9-ENL1 cell lysate; added: probe 10 µM; relative to: MCL-treated control).
`BP(=O)(OC[C@H]1O[C@@H](n2c[n+](C)c3c(O)nc(N)nc32)[C@H](O)[C@@H]1O)OP(=O)([O-])OP(=O)(O)OC[C@H]1O[C@@H](n2cnc3c(=O)[nH]c(N)nc32)[C@H](O)[C@@H]1O` (some centres unmarked) gave an association constant of 77.4 ± 5.4 µM⁻¹ (DCPS; binding, fluorescence quenching titration; pH 7.6, 20.0 °C).
For `Nc1ncnc2c1ncn2[C@@H]1O[C@H](CO)[C@@H](O[C@H]2O[C@H](CO)[C@@H](OP(=O)(O)O)[C@H](OP(=O)(O)O)[C@H]2O)[C@H]1O`, the Hill coefficient was 0.8 ± 0.1 (Inositol 1,4,5-trisphosphate-gated calcium channel ITPR1, N-terminal region (Itpr1, Rattus norvegicus, UniProt P29994, del318-332/R504Q); [3H]IP3 competition binding; N-terminal fragment R504Q).
`NC(=O)CN1C(=O)C(O)(CC(=O)c2cccc(N)c2)c2ccccc21` (centres unmarked) gave a ΔH of -12.4 ± 1.4 kcal/mol (uncharacterized protein (Leishmania donovani, UniProt A0A3Q8IA09); competitive ITC; added: glutamate 60 µM).
`CC(=O)[O-].O.O.O.O.[Mn+2].[O-]c1ccc(Br)cc1C=NCCN1CCOCC1`: “absorption band blue shift” 7 nm (ALB; binding, UV absorption titration, measured: BSA band at 278 nm; pH 7.2, 25 °C; relative to: free BSA).
`CC(=O)N[C@@H](CC(N)=O)C(=O)N[C@@H](CCCNC(=N)N)C(=O)N[C@@H](CCCNC(=N)N)C(=O)N[C@@H](CC(N)=O)C(=O)N[C@H](C(=O)N[C@@H](C)C(=O)N[C@@H](CC(N)=O)C(=O)N[C@@H](CCN1C(=O)c2ccc(N(C)C)cc2C1=O)C(=O)N[C@@H](CCCNC(=N)N)C(=O)N[C@H](C(=O)N[C@H](C(=O)N1CCC[C@H]1C(=O)N[C@H](C(=O)O)C(C)C)[C@@H](C)O)[C@@H](C)O)[C@@H](C)O`: “relative fluorescence increase” 6.9 (Disks large homolog 4, PDZ1-2 domains (Homo sapiens, UniProt P78352); PDZ domain binding, fluorescence emission intensity; PSD-95 PDZ1-2 tandem construct; 4-DMAP-Dab at position -5; relative to: probe without PDZ domain).
`O=C([O-])CN1CCN(CC(=O)[O-])CCN(C(CCC(=O)NCCCCCN(CCCC[C@H](NC(=O)N[C@@H](CCC(=O)O)C(=O)O)C(=O)O)C(=O)c2ccc(I)cc2)C(=O)O)CCN(CC(=O)[O-])CC1.[68Ga+3]` (some centres unmarked) gave an SUVmax of 12 ± 10.9 (FOLH1; PET/CT; prostate cancer patients, bone metastases; 60 min post-injection).
`C=CCC(=N)NCCC[C@H](N)C(=O)O` gave a Hill slope of 1 (Nos3 (Mus musculus, UniProt P70313); ACh-evoked cGMP accumulation, inhibitor; adult mouse aortic rings; fixed for fitting).
`O=C(OC1Cc2c(O)cc(O)cc2OC1c1ccc(O)c(O)c1)c1cc(O)c(O)c(O)c1` (single isomer, unassigned; (-)) — result for “number of binding sites”: 1.1 (XDH (Bos taurus, UniProt P80457); fluorescence quenching; concentration not given, 25 °C).
`CSCC[C@H](NC(=O)[C@H](CO)NC(=O)[C@@H](NC(=O)[C@H](CCC(N)=O)NC(=O)[C@@H](CCCNC(=N)N)NC(=O)[C@@H](CCCNC(=N)N)NC(=O)[C@@H](CCCCN)NC(=O)[C@@H](CCCNC(=N)N)NC(C)=O)[C@@H](C)O)C(=O)N[C@H](C(=O)N[C@@H](CC(=O)O)C(=O)N[C@@H](Cc1ccccc1)C(=O)N[C@@H](Cc1ccc(O)cc1)C(=O)N[C@@H](Cc1c[nH]cn1)C(=O)N[C@@H](CO)C(=O)N[C@H](CCCCN)C(=O)N[C@H](CCCNC(=N)N)C(=O)N[C@H](CCCNC(=N)N)C(N)=O)[C@@H](C)O`: “binding enthalpy ΔH” -17.9 ± 0.239 kcal/mol (PCNA (Homo sapiens, UniProt P12004); isothermal titration calorimetry; concentration not given, pH 7.4, 25 °C, 100 mM NaCl, added: p21 peptide).
Under “melting temperature shift”, `N=C(N)c1ccc(-c2ccc(-c3ccc(-c4ccc(C(=N)N)cc4)[se]3)[se]2)cc1` is recorded as 5.3 °C (T1, dsDNA hairpin, hairpin; UV melting; 6 µM, pH 6.25, Na+ 100 mM; relative to: target alone, higher = more stabilisation).
`Oc1c(C(Nc2nc3ccccc3s2)c2cccc(OCc3ccccc3)c2)ccc2cccnc12` (centres unmarked) gave a kcat of 0.0952 ± 0.0032 s⁻¹ (Genome polyprotein, NS2B-NS3 protease (Dengue virus type 2, UniProt P14340); substrate, tetrapeptide cleavage; 1 µM, 37 °C, without ZnCl2).
For `O=C(c1cc2c(s1)CCCCC2)N1CCC(n2c(=O)[nH]c3ccccc32)CC1`, activation read “inhibited” (Trpc6 (Mus musculus, UniProt Q61143, E671C); ion current, agonist, whole-cell patch clamp; concentration not given, E671C mutant, added: DTNB 2 mM).
`CNC(=O)C(NC(=O)C1CN(C(=O)c2cnn(Cc3ccccc3)c2)CC12CN(C(=O)C1CC1(C)C)C2)C(C)OCCC1CCCCC1` (centres unmarked) — result for tracer displacement: “no effect” (human cyclin E1 N112C:CDK2-NanoLuc; NanoBRET; HEK293T cell lysate; orthosteric site, added: tracer K-10 0.2 µM).
With `NS(=O)(=O)c1ccc(-n2nc(C(F)(F)F)cc2-c2ccc(F)cc2F)cc1` the IC80 was 13.4 µM (Cyclooxygenase-2 (Canis lupus familiaris, UniProt Q8SPQ9); PGE2 formation, inhibitor; dog whole blood; 24 h, added: LPS).
For `O=C(O)CCC(NC(=O)NC(CCCCNC(=O)C(Cc1ccc2ccccc2c1)NC(=O)C1CCC(CNC(=O)CCC(C(=O)O)N2CCN(CC(=O)O)CCN(CC(=O)O)CC2)CC1)C(=O)O)C(=O)O` (centres unmarked), the internalized fraction was 48.5 ± 16.4% (FOLH1; LNCaP; 30 nM, 45 min, 37 °C, 177Lu-labelled; relative to: total cell-bound).
`COc1ccc(C2(SCC(N)C(=O)O)c3ccccc3CCc3ccccc32)cc1` (centres unmarked) has a binding stoichiometry of 0.77 ± 0.008 (Kinesin-like protein KIF11, motor domain (KIF11, Homo sapiens, UniProt P52732); ITC; concentration not given, 25 °C).
The fluorescence quenching of `COC(=O)c1cnc(-c2cnccn2)cc1C(=O)OC.COC(=O)c1cnc(-c2cnccn2)cc1C(=O)OC.F[P-](F)(F)(F)(F)F.[Ag+]` is reported as 79.4% (ALB; fluorescence emission; emission 365.0 nm).
The IC50 ratio of `COc1ccccc1N1CCCN(c2nc3c(c(=O)[nH]2)CCCC3)CC1` is reported as 414 fold (TNKS2 (Homo sapiens, UniProt Q9H2K2); auto-PARylation, inhibitor, ELISA; relative to: compound over RK-287107).
`CCC(CC)O[C@@H]1C=C(C(=O)OC(OC(=O)[C@@H](N)C(C)C)C(C)C)C[C@H](NC(=N)N)[C@H]1NC(C)=O` (single isomer, unassigned) — result for uptake: “decreased” (SLC15A1 (Homo sapiens, UniProt P46059); transporter uptake, substrate; Xenopus laevis oocytes expressing SLC15A1; pH 6.0, room temperature, added: Gly-Sar 1 and 20 mM).
For `CNc1ccccc1C(=O)O[C@H]1C[C@H](n2cnc3c(N)ncnc32)O[C@@H]1COP(=O)(O)OP(=O)(O)O`, “ΔS of pocket step” read -17.4 ± 9.8 cal/(mol·K) (Unconventional myosin-Va (Gallus gallus, UniProt Q02440, D297C/G292C/I296C/S293C/V295G); van't Hoff analysis; added: 10 mM Mg2+).
With `CCCCCCOc1ccc(C(=O)OCC[N+]2(C)CC=CCC2)cc1` (centres unmarked) the cooperativity factor was 0.0012 ± 0.0002 (CHRM4 (Homo sapiens, UniProt P08173); antagonist, measured: inositol phosphates; CHO co-expressing G15; added: carbachol).
The cAMP accumulation of `N=C(N)NCCC[C@H](NC(=O)[C@H](CC(=O)O)NC(=O)[C@@H]1CSCC(=O)NCC(=O)N[C@@H](Cc2c[nH]cn2)C(=O)N[C@H](Cc2ccccc2)C(=O)N[C@@H](CCCNC(=N)N)C(=O)N[C@@H](Cc2c[nH]c3ccccc23)C(=O)N1)C(=O)N[C@@H](Cc1ccccc1)C(=O)NCC(N)=O` is reported as 37% (MC4R (Homo sapiens, UniProt P32245); agonist; HEK293; 10 µM; relative to: MT-II).

Excerpt of the above:
Under “rate constant k4”, `Cc1cc(NC(=O)c2cccc(NC(=O)/C(C#N)=C/C(C)(C)C)c2)ccc1Nc1nccc(-c2cccnc2)n1` is recorded as 0.00035 s⁻¹ (MAPK8 (Homo sapiens, UniProt P45983); surface plasmon resonance, two-step model).
For `O=C(NCC1CO1)Oc1ccc([N+](=O)[O-])cc1` (racemic), “signal to noise ratio” read 4 (Epoxide hydrolase 1 (EPHX1, Homo sapiens, UniProt P07099); substrate, absorbance; 50 µM, pH 9.0, 37 °C, human enzyme).
The hydrolysis of `C[n+]1cn(C2OC(COP(=O)(O)OP(=O)([O-])C(Cl)(Cl)P(=O)(O)OP(=O)(O)OCC3OC(n4cnc5c(=O)[nH]c(N)nc54)C(O)C3O)C(O)C2O)c2nc(N)nc(O)c21` (centres unmarked) is reported as 0% (DCPS; substrate, HPLC; 0.04 mM, 60 min, 37 °C).
